Measured values of several laboratories.
Parts stem from different laboratories: compare values within a part only. Substitutions count along the parent as printed.

Series 1
Target: Centromere-binding protein 1, full length, N-terminal tag (CBF1, Saccharomyces cerevisiae, UniProt P17106, residues 1-351)
Sequence of UniProt P17106 (whole entry, looked up): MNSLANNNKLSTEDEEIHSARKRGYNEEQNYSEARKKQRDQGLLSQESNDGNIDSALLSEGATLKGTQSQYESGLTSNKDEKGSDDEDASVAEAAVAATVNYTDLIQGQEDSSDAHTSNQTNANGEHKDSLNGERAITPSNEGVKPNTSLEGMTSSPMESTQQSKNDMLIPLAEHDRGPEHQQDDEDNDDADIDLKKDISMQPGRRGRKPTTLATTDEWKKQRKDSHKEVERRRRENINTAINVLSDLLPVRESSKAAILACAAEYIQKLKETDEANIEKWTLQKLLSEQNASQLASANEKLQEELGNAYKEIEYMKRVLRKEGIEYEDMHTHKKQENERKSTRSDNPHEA
Technique: protein-binding microarray
Molecule type: double-stranded DNA, one strand shown
Matrix: in vitro
Tested at: 0.8 µM
Setting: whole 60-bp probe, no competitor
Reading: higher = stronger binding
Measurement: fluorescence intensity
All sequences stand within: … GTCTTGATTCGCTTGACGCTGCTG
CTAATCAGAACTAAATGCGTGATCGGAAGTAATTTC: 691 a.u.
CTACTTCTGATGCTTTAGCTGATGGTTTACGCATTC: 519 a.u.
GAAACCTCAGCTCGTCACGTGACGGTCGATGAATAG: 44800 a.u.
GAACTAACACACACACACACGCACAAAAAAATGTAG: 629 a.u.
CTAGTAATTAAAGATCATGTTGGAGTAAAAATCTTC: 575 a.u.
CTATCCACTTTTTTCAACGTGCAAAAGTTGTCCTTC: 601 a.u.
GAAGCACCGCACTCGCACGTGGCAACTATTTGCTAG: 5330 a.u.
CTATTTTGATGGAATCTGCTGATTTTTTTACCTTTC: 583 a.u.
CTACTACCTTCACTGCACGAAACCAAAAGCGACTTC: 596 a.u.
GAAACACACACTCTCAACGTGGTGCGTTTGTGGTAG: 557 a.u.
CTAAAGACATGAAATCACACTGAAATAACGCCTTTC: 528 a.u.
CTAGAAATCCTGAAGCATCAGAACATCGCAAACTTC: 493 a.u.
CTAAAATAAAATGCGCACGAGTAGTTCTAACGCTTC: 606 a.u.
GAAAATCAAAAGCATCATGCGGCGGAGGATTTATAG: 527 a.u.
GAAAAAACATTATTTCATGACACTGTTCCTAGATAG: 533 a.u.
CTACCATTTGCCTGTCTGATGATATTCTTGATTTTC: 521 a.u.
GAAGTCACCTCGTGTGTCGTGATAAATAATCAATAG: 1090 a.u.
CTAAACCCCCGGTATCACGCGGCACTAAAGTTGTTC: 785 a.u.
TGTACGAAGCTATCTCATCTGACTATAGTAGTTAGG: 528 a.u.

Series 2
Target: RNA binding protein fox-1 homolog 2, RRM domain, GST-SBP tag (RBFOX2, Homo sapiens, UniProt O43251-10, residues 100-194)
Technique: RNA Bind-n-Seq
Molecule type: RNA
Matrix: in vitro
Tested at: 365 nM
Setting: natural RNA segment, single round, ends assumed
Baseline: no-protein control
Reading: higher = stronger binding
Measurement: RBNS enrichment (R)
All sequences stand within: GGGAGUUCUACAGUCCGACGAUC … UGGAAUUCUCGGGUGCCAA
Construct (chain): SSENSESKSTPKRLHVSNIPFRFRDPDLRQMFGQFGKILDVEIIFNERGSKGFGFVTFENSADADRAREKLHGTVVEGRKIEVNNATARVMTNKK
CGUCUCUGCUAAAAAUACAAAAAAUUAGCCAGAUGUGGUGGUGCACACCUGUAGUCCCAACUAUUCGGCAGGCUGAGGCAGUAGAAUCGCUUGAACCUGGGAGGCGGAGA: 0.392
AAGCAAAUGCAGUAUAUUAAAGGUGAACACCACACUGAAACUCCCAACUCCUGACAGAAUAACCAGGCUCUUGAUUUAGAUCAUGUGGAAGGUGAGAUAUAAAUGUAUAU: 0.641
AGUGGCCCAGACGCUGCUUUGUGCUAAAAGCAUGGGAAAUGUAAAGGCAGUCUUUCUCUGGGAAAUGGAUGCUAUUCUAUUCUGCUGCCCCUACCUGUUCCUGAGGCCUC: 1.74
UUUCUGGCUGCUGGAAUUGGAGAUAGGAUGUUUUGCUUCCCACUGCAGGAGAGCUGCCCCCUUUCACGGGGUUGGGGAAGGGUCCCCCUGGCCUCCAGCAGGAGCACAGC: 0.9
GGCUCUUCCUGCACUGCCCUCACCCUCAGCCGUCCCAAGGAGUGCCCAGCACUACUCAGCAUGUAGUCCAGGACCUGCGGCAUCAGCAUCCCCUGGGAGCUUCUUAGAAA: 8.44
AUAAUAAAGUGUCUGCCGGCUCGCGGGCCAGGAUCCUCUCGGUGGGAUGGGCACCACAGACAGGAGGCCCCUCAGGCCCGUGCGGGCCACUGUCUGCUGCCGCCUGCCGG: 0.441
CUCUACUACUGGAUGAAAUGUCUGCAUUUCCACCAAAAUCUACCCAGUCACCCAGGGAAUAACAACUUAAGCUGUAGUUAGAUAACACCUAGUGAUUAAUUGGCUGAGAA: 0.301
CUGAGCCCCCGGGGCCUCAAGGUAGGGAGCCGAAGAGGCUGCCAGGACUCUGCUGGGUUGAAAUUUGCCGGGGAGGACUCUUGUCUCCCCCUCAGGAGUAUUUUUGUUGA: 0.942

Series 3
Target: RING finger protein unkempt homolog, zinc fingers 1-6, SBP tag (UNK, Homo sapiens, UniProt Q9C0B0, residues 30-357)
Sequence of UniProt Q9C0B0 (30-357, looked up): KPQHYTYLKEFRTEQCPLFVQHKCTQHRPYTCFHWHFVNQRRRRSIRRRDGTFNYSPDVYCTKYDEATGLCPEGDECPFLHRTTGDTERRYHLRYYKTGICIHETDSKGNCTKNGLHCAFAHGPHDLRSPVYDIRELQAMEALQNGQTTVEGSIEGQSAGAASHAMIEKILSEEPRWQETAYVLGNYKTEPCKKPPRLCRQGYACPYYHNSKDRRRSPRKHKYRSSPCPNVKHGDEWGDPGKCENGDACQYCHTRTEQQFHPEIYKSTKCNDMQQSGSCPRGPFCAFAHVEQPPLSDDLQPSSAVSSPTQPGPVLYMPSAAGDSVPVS
Technique: RNA Bind-n-Seq
Molecule type: RNA
Matrix: in vitro
Tested at: 100 nM
Setting: RNA with constant flanks, vertebrate orthologous sites, ends assumed
Baseline: input RNA pool
Reading: higher = stronger binding
Measurement: bound/input enrichment
All sequences stand within: GGGAGUUCUACAGUCCGACGAUC … CAACAGAGGAUUGAGCAUCA
UUCCAUCUCGUGCCUCUCCCAGUGGGGAGUGGGGGAAACUGACCCUCAGCUGUUCCAAUCCAGUGGGGUUUUUUUAAUUUUUUUUUUGAUUUAAAAAAAUAUUGUAUUUAUUAUGACAAU: 0.592 ratio
GUGACUUUGGGCGUCCGCACUACCUGGGUAGGGAGACUGCUUAGUCUUGACCCCGCAGAUUUGUUUUUCUCCGUUGGGCUGUAGACCUUUGCUGCAAACAUGCUCCGCCAGAUCAUCGGU: 0.506 ratio
UCACUCUACUCUUGUUUUGGAAAUGGUACAAAAUACCUAAGGUGAAAUCCUGGCCCCAUUGAGGUCAAUGGGAGUUUUGUCGUAGACUUCAUUAGGGCUGGGAUUUCACCACUAGUCCAU: 0.37 ratio
AAUAGUUUUAAGCUUGUUUGCACAGUUCUUUCCCUCCAUUGGAGAUGGAAUUCAUUGCCUUAGGUCUUUUUAAUAGUGUAUUGUUAUUGUUGGGCUGGCUCUAUGCUUGAAAACCAGUUU: 1.93 ratio
GCCAAACAUUGCUCCUCUAACUCCCCUCAGUCCGUUGUGUUCUAGUCAGUCUGUUGUGUGUAUAGGCUACUACACAUGCACAUGUCCGUCUGUCUCGCGGAAGGGCUAGACUUGUUUCGU: 0.614 ratio
GUACUGCCCGUGCAAAUCCCACAACACUGAAUGCAAAGUAGCAGUUUCCAUAGUCACAGUUAGGUAGCUUUAGGGCAAUAUUGCCAUGGUUUUACUCAUGUGCAGGUUUUGAAAAUGUAC: 1.25 ratio
CUACAAUAAUGAAAACCUACCAGAAAUUUUUUUUAUUUUUCAUUUUCCCUUAGGCAUACUUAGCCUUUUUCUCCCCAGGCAGAUGAUUCUGAGUGUGCGAGUGUGUGUGCACAUGUUACA: 0.691 ratio
CUCUACGGGCCUCGCAGAGUUGAAAUAAUGGAAGAGGAAAAUGAACAGUAAUCUUCAUGUAGUAUUUAUGCUUAGGUGUGAAAUGCUAUUUGUUGAUCAUUUCUAUAAUCCAGAGCUUUA: 0.308 ratio

Series 4
Target: ABI1, truncated, D143A, DHFR fusion (Arabidopsis thaliana)
Technique: DHFR PCA, deep sequencing
Matrix: yeast
Setting: methotrexate growth selection, single substitutions
With: (+)-ABA 0.0091 µM
Baseline: wild-type fitted maximum
Reading: higher = stronger binding
Measurement: relative binding score
Parent: PYL1, truncated, DHFR fusion (Arabidopsis thaliana); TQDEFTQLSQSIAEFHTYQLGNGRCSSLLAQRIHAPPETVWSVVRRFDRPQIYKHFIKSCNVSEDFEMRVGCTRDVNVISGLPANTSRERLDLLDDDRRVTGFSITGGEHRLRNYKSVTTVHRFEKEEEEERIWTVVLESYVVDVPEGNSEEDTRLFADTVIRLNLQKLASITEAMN
L166H: 3.06%
R123V: -4.22%
V161E: 1.46%
F66H: 1.19%
V43R: -1.45%
P50Y: -9.17%
E147H: 12%
R32G: 0.121%
S59K: 0.381%
R163W: -2.5%
T160P: -0.626%
S63W: -7.55%
L8H: -1.38%
Q10N: 23.8%
R155E: -6.92%

A few entries again (series 4):
R155E: -6.92%
R123V: -4.22%
T160P: -0.626%
R163W: -2.5%
